Earlier results, collected from citations in different studies.
Protocols differ between the studies behind these lines. ± marks the error that the study gave. No end group written: not given here.
DHFR: Dihydrofolate reductase (DHFR, Homo sapiens, UniProt P00374)
Sequence of UniProt P00367 (whole entry, unmodified, looked up): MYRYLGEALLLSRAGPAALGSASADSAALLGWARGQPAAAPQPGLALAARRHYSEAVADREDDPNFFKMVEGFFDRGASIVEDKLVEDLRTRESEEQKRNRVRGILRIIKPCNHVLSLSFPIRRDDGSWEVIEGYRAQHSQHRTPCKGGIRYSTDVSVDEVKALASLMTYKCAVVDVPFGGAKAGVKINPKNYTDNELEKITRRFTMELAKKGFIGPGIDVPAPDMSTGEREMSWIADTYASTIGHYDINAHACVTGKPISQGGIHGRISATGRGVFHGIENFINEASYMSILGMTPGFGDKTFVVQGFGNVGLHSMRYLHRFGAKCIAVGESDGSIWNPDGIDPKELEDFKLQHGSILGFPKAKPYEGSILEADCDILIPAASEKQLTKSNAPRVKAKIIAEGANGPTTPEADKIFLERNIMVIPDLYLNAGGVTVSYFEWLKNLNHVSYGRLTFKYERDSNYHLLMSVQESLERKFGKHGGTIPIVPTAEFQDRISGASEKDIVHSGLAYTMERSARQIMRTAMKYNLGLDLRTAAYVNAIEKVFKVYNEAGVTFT
Sequence of UniProt P00374 (whole entry, looked up): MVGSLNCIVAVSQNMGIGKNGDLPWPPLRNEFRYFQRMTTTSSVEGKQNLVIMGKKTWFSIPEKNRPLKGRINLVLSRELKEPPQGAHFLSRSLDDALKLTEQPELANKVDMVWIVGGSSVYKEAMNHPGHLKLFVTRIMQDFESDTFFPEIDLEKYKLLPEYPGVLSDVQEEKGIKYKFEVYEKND
Sequence of UniProt P14902 (whole entry, looked up): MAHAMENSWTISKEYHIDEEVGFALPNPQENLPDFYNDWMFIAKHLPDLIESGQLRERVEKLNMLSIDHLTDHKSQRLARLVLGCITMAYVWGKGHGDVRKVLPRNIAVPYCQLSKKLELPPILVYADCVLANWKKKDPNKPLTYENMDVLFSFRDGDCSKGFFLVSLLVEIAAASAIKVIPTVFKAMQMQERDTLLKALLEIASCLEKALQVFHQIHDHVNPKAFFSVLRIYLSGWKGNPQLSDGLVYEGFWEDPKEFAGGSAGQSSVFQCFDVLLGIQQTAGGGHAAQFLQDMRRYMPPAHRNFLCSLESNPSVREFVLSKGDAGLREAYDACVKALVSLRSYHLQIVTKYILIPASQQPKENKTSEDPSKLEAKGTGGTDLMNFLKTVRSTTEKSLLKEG
Sequence of UniProt P30872 (whole entry, looked up): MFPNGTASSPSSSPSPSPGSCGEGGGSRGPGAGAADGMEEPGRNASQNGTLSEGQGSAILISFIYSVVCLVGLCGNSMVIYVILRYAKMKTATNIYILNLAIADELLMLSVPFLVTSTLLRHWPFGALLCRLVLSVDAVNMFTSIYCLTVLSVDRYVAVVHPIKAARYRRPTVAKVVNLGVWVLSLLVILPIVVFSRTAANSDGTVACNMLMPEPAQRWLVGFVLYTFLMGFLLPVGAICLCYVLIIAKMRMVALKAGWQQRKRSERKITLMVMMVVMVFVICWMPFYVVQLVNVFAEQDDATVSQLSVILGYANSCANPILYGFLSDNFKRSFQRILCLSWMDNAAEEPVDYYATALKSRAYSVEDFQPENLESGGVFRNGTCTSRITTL
Sequence of UniProt P02730 (whole entry, looked up): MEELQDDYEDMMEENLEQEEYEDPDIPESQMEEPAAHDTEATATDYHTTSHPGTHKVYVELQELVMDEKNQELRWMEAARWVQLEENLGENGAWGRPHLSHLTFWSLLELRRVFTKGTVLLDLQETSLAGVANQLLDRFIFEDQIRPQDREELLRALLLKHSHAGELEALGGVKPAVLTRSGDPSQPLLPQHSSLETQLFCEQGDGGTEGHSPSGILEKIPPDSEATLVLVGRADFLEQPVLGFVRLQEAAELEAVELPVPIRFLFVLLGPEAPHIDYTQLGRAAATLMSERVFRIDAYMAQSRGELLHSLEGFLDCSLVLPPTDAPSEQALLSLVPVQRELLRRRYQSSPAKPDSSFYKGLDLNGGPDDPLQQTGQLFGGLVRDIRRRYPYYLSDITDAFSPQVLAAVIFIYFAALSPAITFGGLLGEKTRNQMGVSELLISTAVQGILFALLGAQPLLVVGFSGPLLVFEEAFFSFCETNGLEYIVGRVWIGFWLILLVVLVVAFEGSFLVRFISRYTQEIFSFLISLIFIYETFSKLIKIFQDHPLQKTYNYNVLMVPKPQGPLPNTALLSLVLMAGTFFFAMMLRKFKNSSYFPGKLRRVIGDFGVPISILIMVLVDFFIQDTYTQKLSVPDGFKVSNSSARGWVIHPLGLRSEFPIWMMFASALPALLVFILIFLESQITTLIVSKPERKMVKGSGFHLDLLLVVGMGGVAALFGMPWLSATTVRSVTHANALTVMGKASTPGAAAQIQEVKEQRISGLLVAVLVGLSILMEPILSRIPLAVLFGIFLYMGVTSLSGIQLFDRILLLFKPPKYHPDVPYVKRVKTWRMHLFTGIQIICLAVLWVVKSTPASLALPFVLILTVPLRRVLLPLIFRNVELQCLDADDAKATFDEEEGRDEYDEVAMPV
Sequence of UniProt Q9S7H8 (whole entry, looked up): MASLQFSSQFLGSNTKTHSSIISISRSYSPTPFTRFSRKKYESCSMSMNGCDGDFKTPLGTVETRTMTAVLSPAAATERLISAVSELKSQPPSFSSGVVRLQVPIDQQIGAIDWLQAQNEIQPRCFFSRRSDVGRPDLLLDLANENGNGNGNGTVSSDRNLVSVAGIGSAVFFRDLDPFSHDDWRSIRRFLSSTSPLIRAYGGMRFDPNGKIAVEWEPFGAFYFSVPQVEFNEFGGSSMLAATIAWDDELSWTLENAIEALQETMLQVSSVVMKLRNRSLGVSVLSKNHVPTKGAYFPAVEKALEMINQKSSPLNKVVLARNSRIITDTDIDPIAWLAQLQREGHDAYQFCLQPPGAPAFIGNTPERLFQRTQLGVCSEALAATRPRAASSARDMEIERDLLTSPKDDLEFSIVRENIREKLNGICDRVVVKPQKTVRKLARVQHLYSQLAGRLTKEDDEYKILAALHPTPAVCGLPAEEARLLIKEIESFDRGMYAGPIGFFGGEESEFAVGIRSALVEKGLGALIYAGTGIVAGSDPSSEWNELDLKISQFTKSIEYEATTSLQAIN
Sequence of UniProt O35627 (whole entry, unmodified, looked up): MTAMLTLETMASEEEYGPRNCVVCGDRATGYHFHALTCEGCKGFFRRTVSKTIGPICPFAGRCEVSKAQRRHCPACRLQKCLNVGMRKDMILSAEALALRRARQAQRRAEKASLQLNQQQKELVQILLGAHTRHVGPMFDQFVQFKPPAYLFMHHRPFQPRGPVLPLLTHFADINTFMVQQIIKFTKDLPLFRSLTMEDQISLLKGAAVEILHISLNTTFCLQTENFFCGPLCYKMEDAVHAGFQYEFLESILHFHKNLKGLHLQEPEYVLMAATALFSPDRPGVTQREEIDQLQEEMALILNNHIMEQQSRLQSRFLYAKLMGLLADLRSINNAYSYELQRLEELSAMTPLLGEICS
Sequence of UniProt P9WHE9 (whole entry, looked up): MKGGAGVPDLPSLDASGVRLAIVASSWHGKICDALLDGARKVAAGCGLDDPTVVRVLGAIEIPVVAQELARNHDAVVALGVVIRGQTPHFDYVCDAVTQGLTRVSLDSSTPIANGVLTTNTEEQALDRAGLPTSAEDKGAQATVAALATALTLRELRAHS

With `O=C1c2cccc3c2[C@H](CCC3)CN1[C@@H]1CN2CCC1CC2` the AUC(0-inf) was 85.6 ng·h/mL (patients, plasma; oral, dose not given, netupitant-palonosetron combination, together with: docetaxel 75 to 100 mg/m^2 IV).
`[I-].[K+]` has an iodide influx of no more than 12% (SLC4A1 (Homo sapiens, UniProt P02730); concentration not given, pH 7.2, 0 °C, citrate replacing chloride; baseline: chloride efflux).
`Nc1ncnc2c1nc(Br)n2[C@@H]1O[C@@H]2COP(=O)(O)O[C@H]2[C@H]1O`: “Km or Ki” 68.8 µM (PDE6; cyclic nucleotide hydrolysis, substrate or inhibitor, isothermal titration calorimetry).
`CCCc1nn(C)c2c(=O)[nH]c(-c3cc(S(=O)(=O)N4C[C@@H](C)N[C@@H](C)C4)ccc3OCC)nc12` gave a relative potency of 1.47 fold (PDE5; enzyme activity, inhibitor; baseline: comparable products).
For `Cc1nc(Nc2ncc(C(=O)Nc3c(C)cccc3Cl)s2)cc(N2CCN(CCO)CC2)n1`, “log2 fold change” read 0.31 (hiPSC-derived cardiomyocytes; contractility; concentration not given, 72 h, at effective concentration; baseline: baseline).
Under “specific binding VS”, `CC(=O)N(Cc1ccccc1O[11CH3])c1cnccc1Oc1ccccc1` is recorded as 95.5 mL/cm³ (TSPO; rhesus monkey cerebellum; concentration not given).
Under “Km or Ki”, `Nc1nc2c(nc(Sc3ccc(Cl)cc3)n2C2O[C@@H]3COP(=O)(O)O[C@H]3[C@H]2O)c(=O)[nH]1` (stereo in doubt) is recorded as 6.04 µM (PDE10; cyclic nucleotide hydrolysis, substrate or inhibitor, isothermal titration calorimetry).
For `Cn1cnc2ncn(Cc3nc(CCc4ccc(Cl)cc4)no3)c(=O)c21`, the IC90 was 1.74 ± 0.15 µM (Trpa1 (Rattus norvegicus, UniProt Q6RI86); antagonist; rat AITC-induced nocifensive model, plasma).
`C[C@]12CCC[C@@H]1[C@H]1CCc3cc(O)ccc3[C@@H]1CC2` (single isomer, unassigned) has an EC50 of 0.239 µM (HT-22; cell protection; together with: glutamate 10 mM).
`COc1ccc(C=CC(=O)c2c(O)cc(OC)cc2OC)cc1` gave an effective concentration of 320 µM (NF-κB; reporter gene and DNA binding, inhibitor; together with: TNFα).
`COc1cc(Nc2c(C#N)cnc3cc(OCCCN4CCN(C)CC4)c(OC)cc23)c(Cl)cc1Cl`: “log2 fold change” 1.92 (hiPSC-derived cardiomyocytes; contractility; concentration not given, 72 h, at effective concentration; baseline: baseline).
`CCOC(=O)c1ncn2c1CN(C)C(=O)c1cc(F)ccc1-2` gave an efficacy of 115 ± 4% (GABAA receptor α2β3γ2; modulator, two-electrode voltage clamp; Xenopus oocytes; 1 to 10 µM, together with: GABA at EC50; baseline: GABA response).
`CNC(C)(C)C(=O)O` has a Km of roughly 40 µM (rat hippocampal neurons; KCl-stimulated uptake, substrate; 5 min, together with: 60 mM KCl).
`CO[C@@H]1[C@@H]2OP(=O)(O)OC[C@H]2O[C@H]1n1c(Sc2ccc(Cl)cc2)nc2c(N)ncnc21` — result for “Km or Ki”: 3.51 µM (PDE6; cyclic nucleotide hydrolysis, substrate or inhibitor, isothermal titration calorimetry).
`KCNTATCATQRLANFLVHSSNNFGAILSSTNVGSNTY (amylin (human); not fully specified (C-terminus, bridges); cysteine pairing not given here; sequence looked up)` has a potency ratio of 10 fold (AMY3 receptor, human; peptide; baseline: compound over human αCGRP).
`O=c1[nH]c(=O)c2nc[nH]c2[nH]1` has a Km of 150 ± 10 µM (Trypanosoma cruzi HGPRT isoform C; enzyme activity, substrate; together with: PRPP 1 mM).
The Km of `C=C(O[C@@H]1C=C(C(=O)O)C=C[C@H]1O)C(=O)O` is reported as 90 µM (ICS1 (Arabidopsis thaliana, UniProt Q9S7H8); substrate).
`Cc1ccc(Sc2cccc3[nH]c4nc(N)nc(N)c4c23)cc1` has an IC50 of greater than 31 µM (DHFR; inhibitor).
`C[C@]12CC[C@@H]3c4cc(C56CC7CC(CC(C7)C5)C6)c(O)cc4CC[C@H]3[C@@H]1CC[C@@H]2O` gave an EC50 of 0.121 µM (HT-22; cell protection; together with: glutamate 20 mM).
For `Nc1nc2nc[nH]c2c(=O)[nH]1`, the Km was 14 ± 1 µM (Trypanosoma cruzi HGPRT isoform C; enzyme activity, substrate; GMP formation, together with: PRPP 1 mM).
The Km of `O=c1ccn([C@@H]2O[C@H](CO)[C@@H](O)[C@H]2O)c(=O)[nH]1` is reported as 4.1 ± 2.1 µM (nucleoside transporter U2; Trypanosoma brucei, procyclic forms).
The EC50 of `CC(C)C[C@H](N)C(=O)O` is reported as 470 µM (GLUD1 (Homo sapiens, UniProt P00367, H507Y); enzyme activity, activator; mutant enzyme, reductive amination).
With `CC(C)NCc1ccc(C[C@@H]2NC(=O)[C@@H](N(C)C(=O)c3ccc4ccccc4c3)NC(=O)[C@H](Cc3ccccc3)NC(=O)[C@H](Cc3ccccc3)NC(=O)[C@H](CCCCN)NC(=O)[C@@H](N)CSSC[C@@H](C(=O)O)NC(=O)[C@H](CO)NC(=O)[C@H]([C@@H](C)O)NC(=O)[C@H](Cc3ccc(O)cc3)NC(=O)[C@H]([C@@H](C)O)NC2=O)cc1` the affinity increase was 5 fold (SSTR1 (Homo sapiens, UniProt P30872); baseline: compound over parent peptide).
`O=P(O)(O)OC[C@H]1O[C@H](OP(=O)(O)OP(=O)(O)O)[C@H](O)[C@@H]1O` gave a Km of 39 ± 2 µM (Trypanosoma cruzi HGPRT isoform C; enzyme activity, substrate; IMP formation, together with: hypoxanthine 100 µM).
The IC50 of `Nc1nc(N)c2c(n1)[nH]c1cccc(Sc3ccccc3)c12` is reported as greater than 33 µM (DHFR; inhibitor).
`Oc1ccc(/C=C/c2ccc3ccccc3c2)cc1O`: “emission maximum shift” greater than 100 nm (Transthyretin, fibrils (TTR, Homo sapiens, UniProt P02766); fluorescence; baseline: native over misfolded protofibrillar TTR).
For `O=C(O)c1cc2cc(Br)ccc2oc1=O`, the inhibition was 100% (Glutamate NMDA receptor; Grin1/Grin2b (Grin1/Grin2b, Rattus norvegicus, UniProt P35439+Q00960); concentration not given).
The −TΔS of `CC[C@H](C)[C@H](NC(=O)[C@H](CCCCN)NC(=O)[C@H](Cc1c[nH]cn1)NC(=O)[C@@H](N)CCCNC(=N)N)C(=O)N[C@@H](CC(C)C)C(=O)N[C@@H](Cc1c[nH]cn1)C(=O)N[C@@H](CCCNC(=N)N)C(=O)N[C@@H](CC(C)C)C(=O)N[C@@H](CC(C)C)C(=O)N[C@@H](CCC(N)=O)C(=O)N[C@@H](CCC(=O)O)C(=O)NCC(=O)N[C@@H](CO)C(=O)O` is reported as 1.5 kcal/mol (Nuclear receptor subfamily 1 group I member 3, with RXR (Mus musculus, UniProt O35627); binding, isothermal titration calorimetry; pH 7.2, 25°C, together with: TCPOBOP, fourfold excess).
`N[C@@H](CO)C(=O)O` has a Km of 100 µM (serine hydroxymethyltransferase, human; substrate).
`Nc1nc2c(ncn2[C@@H]2O[C@@H]3COP(=O)(O)O[C@H]3[C@H]2O)c(=O)[nH]1`: “Km or Ki” 5.35 µM (PDE1B; cyclic nucleotide hydrolysis, substrate or inhibitor, isothermal titration calorimetry).
With `CC(=O)[C@H]1CC[C@H]2[C@@H]3CCC4=CC(=O)CC[C@]4(C)[C@H]3CC[C@]12C` the Km was 0.21 ± 0.03 µM (CYP21A2; 21-hydroxylation, substrate).
The inhibition of `COc1ccc(/C=C\c2cc(OC)c(OC)c(OC)c2)cc1O` is reported as 95 to 100% (tubulin; [3H]colchicine binding, inhibitor; 5.0 µM, together with: 1.0 µM tubulin, 5.0 µM [3H]colchicine).
The Km of `C=CC1=C(C)/C(=C/c2[nH]c(Cc3[nH]c(/C=C4\NC(=O)C(C)=C4C=C)c(C)c3CCC(=O)O)c(CCC(=O)O)c2C)NC1=O` is reported as 0.2 to 26 µM (UGT1A1 (Homo sapiens, UniProt P22309); glucuronidation, substrate).
The Km of `NC(=O)c1ccc[n+]([C@@H]2O[C@H](COP(=O)([O-])OP(=O)(O)OC[C@H]3O[C@@H](n4cnc5c(N)ncnc54)[C@H](O)[C@@H]3O)[C@@H](O)[C@H]2O)c1` is reported as 24 µM (human SARM1 TIR domain; substrate, LC-MS).
`CC(=O)O` gave a Km of 14000 ± 610 µM (ADP-forming acetyl-CoA synthetase (Entamoeba histolytica, UniProt C4LUV9); substrate).
`Nc1nc2c(nc(Br)n2[C@@H]2O[C@@H]3COP(=O)(O)O[C@H]3[C@H]2O)c(=O)[nH]1` — result for “Km or Ki”: 62.8 µM (PDE1C; cyclic nucleotide hydrolysis, substrate or inhibitor, isothermal titration calorimetry).
For `Nc1ncnc2c1ncn2[C@@H]1O[C@H](COP(=O)(O)OP(=O)(O)O)[C@@H](O)[C@H]1O`, the EC50 was 21 µM (GLUD1 (Homo sapiens, UniProt P00367, S501P); enzyme activity, activator; mutant enzyme, reductive amination).
`N[C@@H](Cc1c[nH]c2ccccc12)C(=O)O` — result for “redox potential shift”: roughly 46 mV (Indoleamine 2,3-dioxygenase 1, ferric form (IDO1, Homo sapiens, UniProt P14902); heme redox potential; baseline: substrate-free enzyme).
For `O=c1c2nc(Br)n([C@@H]3O[C@@H]4COP(=O)(O)O[C@H]4[C@H]3O)c2nc2[nH]c(-c3ccccc3)cn12`, “Km or Ki” read 2.4 µM (PDE1A; cyclic nucleotide hydrolysis, substrate or inhibitor, isothermal titration calorimetry).
The Ks of `O=c1[nH]c(=O)c2[nH]c(=O)c(=O)n(C[C@H](O)[C@H](O)[C@H](O)CO)c2[nH]1` is reported as 25 ± 4 µM (ribH (Mycobacterium tuberculosis, UniProt P9WHE9); enzyme kinetics; pH 7.0, together with: substrate 2 fixed, 1 varied; lower = tighter substrate binding).

Excerpt of the above:
`Oc1ccc(/C=C/c2ccc3ccccc3c2)cc1O`: “emission maximum shift” greater than 100 nm (Transthyretin, fibrils (TTR, Homo sapiens, UniProt P02766); fluorescence; baseline: native over misfolded protofibrillar TTR).
For `Cn1cnc2ncn(Cc3nc(CCc4ccc(Cl)cc4)no3)c(=O)c21`, the IC90 was 1.74 ± 0.15 µM (Trpa1 (Rattus norvegicus, UniProt Q6RI86); antagonist; rat AITC-induced nocifensive model, plasma).
`C[C@]12CC[C@@H]3c4cc(C56CC7CC(CC(C7)C5)C6)c(O)cc4CC[C@H]3[C@@H]1CC[C@@H]2O` gave an EC50 of 0.121 µM (HT-22; cell protection; together with: glutamate 20 mM).
The EC50 of `CC(C)C[C@H](N)C(=O)O` is reported as 470 µM (GLUD1 (Homo sapiens, UniProt P00367, H507Y); enzyme activity, activator; mutant enzyme, reductive amination).
For `O=C(O)c1cc2cc(Br)ccc2oc1=O`, the inhibition was 100% (Glutamate NMDA receptor; Grin1/Grin2b (Grin1/Grin2b, Rattus norvegicus, UniProt P35439+Q00960); concentration not given).
